Published values pooled from the literature.
Lines come from different studies, so protocols differ. “And” joins repeats or separate records; there may be more than shown. ± gives the spread as reported.

SMILES | test | system | conditions | scale | measurement | result
CCCC[C@H](NC(=O)CNC(=O)CNC(=O)[C@H](CCCCNC(=O)C(C)c1ccc(CC(C)C)cc1)NC(=O)CN1CCN(CC(=O)O)CCN(CC(=O)O)CCN(CC(=O)O)CC1)C(=O)N[C@H]1CC(=O)NCCCC[C@@H](C(N)=O)NC(=O)[C@H](Cc2c[nH]c3ccccc23)NC(=O)[C@H](CCCNC(=N)N)NC(=O)[C@@H](Cc2ccccc2)NC(=O)[C@H](Cc2c[nH]cn2)NC1=O (stereo partly shown) [lutetium-177 labelled] | – | C57 mouse, urine | 2 h | – | urinary excretion | 70.2 ± 4.55%
CS(=O)(=O)c1ccc(-c2ccc([C@H]3[C@@H](F)[C@@H](F)C[C@@H](F)[C@H]3F)cc2)cn1 | hepatocyte stability | cryopreserved mouse hepatocytes | 1 µM | – | hepatic clearance | 21 mL/min/kg
O=C(CN1CN(c2ccc(Cl)c(Cl)c2)C2(CCN(C(=O)c3ccc4[nH]ncc4c3)CC2)C1=O)NCC(F)(F)F | – | mouse liver microsomes | – | – | CLint | 430 µL/min/mg protein
CCN(CC)c1ccc2c(c1)O[B-]1(c3ccccc3)OC(=O)C(c3ccccc3)=N[N+]1=C2C(C)C (stereo not shown) | – | toluene | – | – | fluorescence lifetime | 2.22 ns
C=CC(=O)Nc1cc(Nc2nccc(-c3cn(C)c4ccccc34)n2)c(OC)cc1N(C)CCNC | storage stability | human plasma | 2 h, -80 °C, LQC level | – | recovery | 103%
COc1cnc2cccc(N3CCc4c(cc(Cn5ccnc5)cc4-c4cn(C)nc4C(F)(F)F)C3=O)c2c1 | – | CD-1 mouse, male, plasma | intravenous, 3 mg/kg | – | AUC extrapolated | 0.4%
O=C([O-])CN1CCN(CC(=O)[O-])CCN(C(CO)C(O)CO)CCN(CC(=O)[O-])CC1.[Dy+3] (stereo not shown) | ICP-MS | cynomolgus monkey, feces | 4 days post-injection | reference: dose | cumulative fecal excretion | 0.4%
CN(C)C(=O)CNC(=O)c1ccc(C2CCCCC2)cc1 | liver microsome stability | dog liver microsomes | 1 µM | – | hepatic clearance | 24 mL/min/kg
OCCn1nc(-c2ccccc2)c2c(Cl)c(-c3ccccc3)nnc21 | – | mouse juvenile P20, plasma | intraperitoneal, 40 mg/kg | – | AUC | 2.28 µM·h
[11CH3]N(Cc1ccc(/C=C/C(=O)NO)cc1)CC12CC3CC(CC(C3)C1)C2 | – | baboon, arterial plasma | intravenous, dose not given, over 30 min | – | parent compound in plasma | 40%
COc1ccc(CN2CCC(F)(F)C(COc3ccc(F)c(F)c3)C2)cc1F (stereo not shown) | equilibrium dialysis | mouse plasma | – | – | fu | 0.048
CC(C)C[C@@H](NC(=O)[C@H](NC(=O)[C@H]1CCCN1)[C@H](C)O)C(=O)N[C@H](Cc1c[nH]cn1)C(=O)N[C@@H](C(=O)N[C@H](Cc1c[nH]cn1)C(=O)N[C@H](CC(N)=O)C(=O)N[C@H](CCCNC(=N)N)C(=O)N[C@H](CCCNC(=N)N)C(=O)N[C@H](CCCNC(=N)N)C(=O)N[C@H](CCCNC(=N)N)C(=O)N[C@H](CCCNC(=N)N)C(N)=O)[C@H](C)O | – | Beagle dog, blood | oral, 3 mg/kg daily, 3 months | – | cholesterol | 5.5 mmol/L
COc1ccc2c(c1)CN(C(=O)CCN1CCC(Cc3ccccc3)CC1)CCS2 | – | dog plasma | 250 ng/mL | – | fu | 0.054
COc1cccc(OC)c1-c1cc(C(=O)NC2(C(=O)O)C3CC4CC(C3)CC2C4)nn1-c1ccc(C(=O)N(C)CCCN(C)CCCN(C)C(=O)[C@H](CCCCNC(=O)[C@H](CC(C)C)NC(=O)C2OC2C(=O)O)NC(=O)CN2CCN(CC(=O)[O-])CCN(CC(=O)[O-])CCN(CC(=O)[O-])CC2)cc1C(C)C.[177Lu+3] (mixture of isomers) | – | mouse, HT-29 xenograft | 168 h post injection, biodistribution | reference: tumour over blood uptake | tumour-to-blood ratio | 5.15
COCC1CN(C2CCN(c3cc(OC)c(Nc4ncc(Br)c(Nc5ccc6c(c5P(C)(C)=O)OCCO6)n4)cc3C)CC2)C1 | – | EGFR-mutant NSCLC patients, plasma | oral, 30 mg single dose, geometric mean | – | t1/2 | 28.9 h
O=C(Nc1cnccc1-c1ccc([18F])cc1)c1ccnc(NC(=O)C2CC2)c1 | ex vivo gamma counting | GSK-3β transgenic mice, late-stage, skin | intravenous, 1.26 MBq/animal, 120 min, mean, no P-gp inhibitor | – | SUV | 0.13
O=C(N1CCCCC1)C12CC(c3ccccc3)(C1)C2(Br)Br | metabolic stability | human, liver microsomes | 2 µM, 25 min, pH 7.4 | – | compound remaining | 31%
Cc1nc(N)nc2c1C(=O)N[C@@H](c1ccc(F)cc1-c1cccc(O[11CH3])n1)C2 | ex vivo biodistribution | mice, MDA-MB-231 subcutaneous xenograft, liver | 60 min post-injection, baseline, vehicle pre-treatment | – | SUV | 2.5 ± 0.2
CN1CCN(c2ccc(/C=C/c3cc(=O)cc(/C=C/c4ccc(N5CCN(C)CC5)cc4)o3)cc2)CC1 | – | acetonitrile/water 1:19 v/v | 298 K, aggregate nanoparticle suspension, together with: excitation 377 nm | – | fluorescence lifetime | 0.4 ns
COC1C=COC2(C)Oc3c(C)c(O)c4c(c3C2=O)C2=NC3(CCN(CC(C)C)CC3)NC2=C(NC(=O)C(C)=CC=CC(C)C(O)C(C)C(O)C(C)C(OC(=O)Nc2cscn2)C1C)C4=O (stereo not shown) | – | CD-1 mouse, plasma | oral, dose not given, efficacy dose | – | fAUC/MIC ratio | 28
CN1CCN(c2ccc3[nH]c(-c4ccc5[nH]c(-c6ccc(OCCCCNC(=O)c7cccc8c7C(=O)OC87c8ccc(N(C)C)cc8[Si](C)(C)c8cc(N(C)C)ccc87)cc6)nc5c4)nc3c2)CC1 | – | PBS with 0.1% SDS | – | – | fluorescence quantum yield | 0.59 ± 0.01
C/C(N)=N/C(=N\S(=O)(=O)c1ccc(C(F)(F)F)cc1)N1C[C@H](c2ccccc2)C(c2ccc(Cl)cc2)=N1 | – | C57BL/6 mouse, brain | intravenous, 10 mg/kg | – | Tmax | 0.5 h
CN([O-])C(=O)CN1CCN(CC(=O)N(C)[O-])CCN(Cc2ccccn2)CC1.[89Zr+4] | – | mouse, liver | intravenous, 24 h | – | tracer uptake | 0.45 %ID/g
O=C(CCC(F)(F)F)Nc1ccc(C2CCCCC2)cc1 | liver microsome stability | mouse liver microsomes | 1 µM | – | hepatic clearance | 84 mL/min/kg
O=C(Nc1cnccc1-c1ccc([18F])nc1)c1ccnc(NC(=O)C2CC2)c1 | – | FVB/NJ mice (both sexes), urine | intravenous, dose not given, 120 min | – | SUV | 12.9

SMILES | test | system | conditions | scale | measurement | result
NS(=O)(=O)c1cccc(-c2ccc([C@H]3[C@@H](F)[C@@H](F)C[C@@H](F)[C@H]3F)cc2)c1 | liver microsome stability | human liver microsomes | 1 µM, without NADPH | – | hepatic clearance | 3.9 mL/min/kg
CN(O)C(=O)CCC(=O)NCCCN(CCCCN(CCCNC(=O)CCC(=O)N(C)O)C(=O)CCC(=O)N(C)O)C(=O)CCC(=O)N(C)O.[89Zr] | radio-TLC | aqueous buffer | 3 d, pH 7, 37 °C, 89Zr-labelled complex, together with: DTPA 1000-fold excess | – | intact complex | 91.6 ± 1.1%
C=C(NC(=O)c1csc(-c2nc3c(cc2O)-c2nc(cs2)C(=O)NC(C(C)O)C(=O)NC(=C(C)OC)c2nc(cs2)C(=O)NC2c4nc(cs4)C(=O)NC(COC(=O)c4c5c6c(cccc6n4O)COC(=O)C(OC4CC(C)(O)C(N(C)C)C(C)O4)C2OC5)c2nc-3cs2)n1)C(N)=O (stereo not shown) | – | female Sprague-Dawley rats, plasma | intravenous infusion, 6 mg/kg | – | AUC(0-inf) | 2360 ng·h/mL
C=CC(=O)Nc1cc(Nc2nccc(-c3c[nH]c4ccccc34)n2)c(OC)cc1N(C)CCN(C)C | storage stability | human dried blood spot | 2 h, on ice, LQC level | – | recovery | 101%
CN(C)c1cccc(-c2ccc([C@H]3[C@@H](F)[C@@H](F)C[C@@H](F)[C@H]3F)cc2)c1 | liver microsome stability | cynomolgus liver microsomes | 1 µM | – | hepatic clearance | 37 mL/min/kg
Cc1cc(-c2ccc(C(=O)[C@@H]3CCCC[C@H]3C(=O)Nc3cnn4c3C(=O)NCC4)cc2)[nH]n1 | – | human, faeces | oral, 200 mg, 0-216 h | reference: dose | cumulative radioactivity recovery | 85.4% and 74.4% and 75.8% and 76.3% and 81.3% and 79.5%
C=C[C@]1(C)C[C@@H](OC(=O)CSc2ccc(NC(=O)c3ccco3)cc2)[C@]2(C)[C@H](C)CC[C@]3(CCC(=O)[C@H]32)[C@@H](C)[C@@H]1O | – | M. gallisepticum-infected chickens, plasma | intramuscular, 5 mg/kg single dose | – | AUC(0-24 h) | 1490 ng·h/mL
O=C(NCc1cccc(Cl)c1)c1ccc(C2CCCCC2)cc1 | liver microsome stability | rat liver microsomes | 1 µM | – | hepatic clearance | 48 mL/min/kg
CCn1nc(Cl)c2c1-c1cnc(N)c(c1)O[C@H](C)c1cc(F)ccc1-c1nn(C)cc1C2 | – | Balb/c nude mouse female, plasma | 0.06 mg/kg twice daily for 5 days, 1 h | – | free plasma concentration | 0.43 nM
CCC1(CC)CC(=O)N(C2CCOc3ccc(C(=O)NC4CC(C)(C)Oc5ccccc54)cc32)C(=N)N1 (stereo not shown) | – | human plasma | – | – | unbound fraction | 0.035
COC(=O)[C@@]1(C)C=C(C(=O)Nc2cccc(C(=O)Nc3ccc(Nc4nccc(-c5cccnc5)n4)c(C)c3)c2)C(=O)CC1 | – | Wistar rat, male, plasma | 1 µM, 20 min | – | compound remaining | 32.5%
COc1cccc(OC)c1-c1cc(C(=O)NC2(C(=O)O)C3CC4CC(C3)CC2C4)nn1-c1ccc(C(=O)N(C)CCCN(C)C(=O)[C@H](CCCCNC(=O)[C@H](CC(C)C)NC(=O)C2OC2C(=O)O)NC(=O)CN2CCN(CC(=O)[O-])CCN(CC(=O)[O-])CCN(CC(=O)[O-])CC2)cc1C(C)C.[177Lu+3] (mixture of isomers) | – | mouse, HT-29 xenograft | 4 h post injection, biodistribution | reference: tumour over kidney uptake | tumour-to-kidney ratio | 0.53
CCCCCCCOc1ccc(CC[C@](N)(CO)COP(=O)(O)O)cc1C(F)(F)F | – | healthy men, plasma | oral, 0.25 mg once daily, day 21, fed state | – | AUCτ | 80.2 ng·h/mL
CCCN(C)c1cc(C(F)(F)F)nc(SCCC(=O)NCc2ccco2)n1 | – | Wistar rat | intraperitoneal, 25 mg/kg, 2 min post-dose, isoflurane anaesthesia | reference: vehicle control | heart rate | no effect
CC[C@H](C)[C@@H]1NC(=O)[C@H](Cc2ccc(O)cc2)NC(=O)CCCSC[C@@H](C(=O)N(CC(=O)N[C@@H](CC(C)C)C(=O)NCC(N)=O)Cc2ccc(F)cc2)NC(=O)[C@H](CC(N)=O)NC(=O)[C@H](CCC(N)=O)NC1=O | – | human | intranasal, 300 µg single dose | – | AE leading to discontinuation | 0%
CCC(CC)n1c(Cc2cccs2)nc2cc(C(=O)N[C@@H](CC(=O)O)c3ccccc3)ccc21 | – | male Sprague-Dawley rat, plasma | intraperitoneal, 10 mg/kg | – | MRT(0-t) | 2.19 h
N#CCNC(=O)c1ccc(C2CCCCC2)cc1 | liver microsome stability | mouse liver microsomes | 1 µM | – | hepatic clearance | 81 mL/min/kg
COC(=O)[C@@]1(C(C)C)C=C(C(=O)Nc2cccc(C(=O)Nc3ccc(Nc4nccc(-c5cccnc5)n4)c(C)c3)c2)C(=O)CC1 | – | rat, plasma | 1 µM, 10 min | – | compound remaining | 97.4% and 101%
COc1cccc(OC)c1-c1cc(C(=O)NC2(C(=O)O)C3CC4CC(C3)CC2C4)nn1-c1ccc(C(=O)N(C)CCOCCOCCN(C)C(=O)[C@H](CCCCNC(=O)[C@H](CC(C)C)NC(=O)C2OC2C(=O)O)NC(=O)CN2CCN(CC(=O)[O-])CCN(CC(=O)[O-])CCN(CC(=O)[O-])CC2)cc1C(C)C.[177Lu+3] (mixture of isomers) | – | mouse, HT-29 xenograft | 4 h post injection, biodistribution | reference: tumour over blood uptake | tumour-to-blood ratio | 1.4
CCN(CC)c1ccc2c(c1)O[B-]1(c3ccccc3)OC(=O)C(c3ccccc3)=N[N+]1=C2 (stereo not shown) | – | toluene | – | – | fluorescence lifetime | 2.41 ns
COc1cccc(OC)c1-c1cc(C(=O)NC2(C(=O)O)C3CC4CC(C3)CC2C4)nn1-c1ccc(C(=O)N(C)CCOCCN(C)C(=O)[C@H](CCCCNC(=O)[C@H](CC(C)C)NC(=O)C2OC2C(=O)O)NC(=O)CN2CCN(CC(=O)[O-])CCN(CC(=O)[O-])CCN(CC(=O)[O-])CC2)cc1C(C)C.[177Lu+3] (mixture of isomers) | – | mouse, HT-29 xenograft | 4 h post injection, biodistribution | reference: tumour over bone uptake | tumour-to-bone ratio | 10.7
CN(C(=O)C(C)(C)c1cc(C(F)(F)F)cc(C(F)(F)F)c1)c1cnc(N2C[C@H]3COC(O)CN3C[C@H]2CO)cc1-c1ccc(F)cc1CO (stereo partly shown) | – | pooled human liver microsomes | pH 7.4, substrate depletion | – | unbound intrinsic clearance | 211 µL/min/mg
O=C(Nc1ccc([C@H]2[C@@H](F)[C@@H](F)C[C@@H](F)[C@H]2F)cc1)C1CC1(F)F (stereo partly shown) | liver microsome stability | mouse liver microsomes | 1 µM | – | hepatic clearance | 28 mL/min/kg
OC1(C(F)(F)F)CCN(c2nc(Nc3ccnc(C(F)(F)F)c3)nc(-c3cccc(C(F)(F)F)n3)n2)C1 (stereo not shown) | – | monkey, both sexes, plasma | oral, 1 mg/kg, day 14 | – | Cmax | 774 ± 276 ng/mL
